Results from different studies.
± gives the spread as reported.
MC1R: Melanocyte-stimulating hormone receptor (MC1R, Homo sapiens, UniProt Q01726)
Sigmar1: Sigma non-opioid intracellular receptor 1 (Sigmar1, Rattus norvegicus, UniProt Q9R0C9)
ampC: Beta-lactamase (ampC, Escherichia coli K-12, UniProt P00811)
Mannan-binding lectin serine protease 2: Mannan-binding lectin serine protease 2 (Homo sapiens, UniProt O00187)
SLC6A3: Sodium-dependent dopamine transporter (SLC6A3, Homo sapiens, UniProt Q01959)
Oprk1: Kappa-type opioid receptor (Oprk1, Rattus norvegicus, UniProt P34975)

| Structure (SMILES) | target | assay | system | setting | Ki |
| --- | --- | --- | --- | --- | --- |
| CN(C)C(=N)N=C(N)N | ARG2 (Homo sapiens, UniProt P78540) | enzyme activity, inhibitor, absorbance |  |  | > 50000 µM |
| CC[C@H](C)[C@H](NC(=O)CN)C(=O)N[C@H](C(=O)N[C@@H](CC(N)=O)C(=O)N[C@H](C(=O)N[C@@H](CC(C)C)C(=O)N[C@@H](CCC(N)=O)C(=O)N[C@@H](CCCCN)C(=O)N[C@@H](Cc1ccc(O)cc1)C(=O)N[C@@H](Cc1ccc(O)cc1)C(=O)N[C@H]1CSSC[C@@H]2NC(=O)[C@H](CCCCN)NC(=O)[C@H](CCCNC(=N)N)NC(=O)CNC(=O)[C@H](C)NC(=O)[C@H]([C@@H](C)O)NC(=O)[C@H](CO)NC(=O)[C@@H]3CSSC[C@H](NC(=O)[C@H](CCCNC(=N)N)NC(=O)CNC(=O)CNC(=O)[C@H](CCCNC(=N)N)NC(=O)[C@H](C(C)C)NC(=O)[C@H](CCCNC(=N)N)NC1=O)C(=O)N[C@@H](C)C(=O)N[C@@H](C(C)C)C(=O)N[C@@H](CC(C)C)C(=O)N[C@@H](CO)C(=O)N[C@@H](CSSC[C@@H](C(=O)N[C@@H](CCCNC(=N)N)C(=O)N[C@@H](CCCNC(=N)N)C(=O)N[C@@H](CCCCN)C(=O)N[C@@H](CCCCN)C(N)=O)NC2=O)C(=O)N[C@@H](CC(C)C)C(=O)N1CCC[C@H]1C(=O)N[C@@H](CCCCN)C(=O)N[C@@H](CCC(=O)O)C(=O)N[C@@H](CCC(=O)O)C(=O)N[C@@H](CCC(N)=O)C(=O)N[C@@H]([C@@H](C)CC)C(=O)NCC(=O)N[C@@H](CCCCN)C(=O)N3)[C@@H](C)O)[C@@H](C)CC | MC1R | ligand displacement in cells |  |  | 0.081 µM |
| CC[C@H](C)[C@H](NC(=O)[C@H](CS)NC(=O)[C@H](CCC(N)=O)NC(=O)[C@H](CC(C)C)NC(=O)[C@H](CCCCN)NC(=O)[C@H](CCCNC(=N)N)NC(=O)[C@H](C)NC(=O)[C@@H](NC(=O)[C@H](CCC(N)=O)NC(=O)[C@@H](NC(=O)[C@H](CCC(=O)O)NC(=O)[C@H](C)NC(=O)[C@H](CCC(N)=O)NC(=O)[C@@H](N)Cc1c[nH]cn1)C(C)C)[C@@H](C)CC)C(=O)N[C@@H](C)C(=O)N[C@@H](CC(=O)O)C(=O)N[C@@H](CCC(N)=O)C(=O)N[C@@H](Cc1ccccc1)C(=O)N[C@@H](Cc1c[nH]cn1)C(=O)N[C@@H](CCCNC(=N)N)C(=O)N[C@@H](CC(C)C)C(=O)N[C@@H](Cc1c[nH]cn1)C(=O)N[C@H](C(=O)N[C@@H](CCC(N)=O)C(=O)N[C@@H](CCC(N)=O)C(=O)O)C(C)C | BCL2 (Homo sapiens, UniProt P10415) | ligand displacement, FP |  |  | 0.018 µM |
| CNC(C)C(=O)NC1COC2CCC(C(=O)NCc3ccccc3)N2C1=O (mixture of isomers) | Baculoviral IAP repeat-containing protein 2, BIR3 (BIRC2, Homo sapiens, UniProt Q13490) | ligand displacement, FP |  |  | 8.98 µM |
| O=c1sc2ccccc2n1CCN1CCCC1 | Sigmar1 | binding, radioligand binding | rat liver membranes | together with: [3H](+)-pentazocine 5 nM | 0.578 ± 0.041 µM |
| C[C@H](CCC(=O)NCC(=O)O)[C@H]1CC[C@H]2[C@@H]3C(=O)C[C@H]4C[C@H](O)CC[C@]4(C)[C@H]3CC[C@]12C | SLC10A2 (Homo sapiens, UniProt Q12908) | transporter uptake, inhibitor, radiometric |  |  | 20.4 µM |
| CCCc1ccc2c(c1)sc(=O)n2CCCCN1CCCCCC1 | Sigmar1 | binding, radioligand binding | rat liver membranes | together with: [3H](+)-pentazocine 5 nM | 0.0061 ± 0.0012 µM |
| OB(O)c1cnn(-c2cccc(Cl)c2)c1 | ampC | enzyme activity, inhibitor |  | together with: CENTA | 0.04 µM |
| CC(=O)N[C@@H](CCCNC(=N)N)C(=O)N[C@@H](Cc1ccc(O)cc1)C(=O)N[C@H]1CCCNC(=N)NC(=O)NCCCCNC(=O)[C@H](Cc2ccc(O)cc2)NC(=O)[C@H](CCCNC(=N)N)NC(=O)[C@H](CC(C)C)NC1=O | NPY1R (Homo sapiens, UniProt P25929) | ligand displacement, radioligand |  |  | > 5 µM |
| CC[C@H](C)[C@H](NC(=O)[C@@H]1CSSC[C@H](NC(=O)[C@H](Cc2ccc(O)cc2)NC(=O)CNC(C)=O)C(=O)N[C@@H](CO)C(=O)N[C@@H](CCCNC(=N)N)C(=O)N[C@@H](CO)C(=O)N[C@@H](Cc2ccc(O)cc2)C(=O)N2CCC[C@H]2C(=O)N2CCC[C@H]2C(=O)N[C@@H](C(C)C)C(=O)N1)C(=O)N1CCC[C@H]1C(=O)N[C@@H](CC(=O)O)C(=O)O | Mannan-binding lectin serine protease 2 | enzyme activity, inhibitor |  |  | 0.14 µM |
| CC(Cc1ccccc1Sc1ccccc1)N(C)C (stereo not shown) | SLC6A3 | ligand displacement in cells, radioligand |  |  | 0.78 µM |
| Cc1cc2c(cc1Cl)-c1c(c(C(=O)NC3C4(C)CCC(C4)C3(C)C)nn1-c1ccc(Cl)cc1Cl)C2 (stereo not shown) | Cnr1 (Mus musculus, UniProt P47746) | binding, radioligand displacement | mouse brain homogenate without cerebellum | together with: [3H]CP-55,940 | 3.25 ± 0.75 µM |
| O=c1sc2ccccc2n1CCCCCN1CCCCCC1 | Sigmar1 | binding, radioligand binding | rat liver membranes | together with: [3H](+)-pentazocine 5 nM | 0.007 ± 0.0003 µM |
| CC(=O)N[C@H](CCCNC(=N)N)C(=O)N[C@@H](Cc1ccc(O)cc1)C(=O)N[C@@H](CCCNC(=N)NC(=O)NCCCCN)C(=O)N[C@@H](CC(C)C)C(=O)N[C@@H](CCCNC(=N)N)C(=O)N[C@@H](Cc1ccc(O)cc1)C(N)=O | NPY5R (Homo sapiens, UniProt Q15761) | ligand displacement, radioligand |  |  | > 5 µM |
| CC(=O)NCC(=O)N(C)[C@@H](Cc1ccccc1)C(=O)N[C@@H](Cc1ccccc1)C(=O)N[C@@H](Cc1ccccc1)C(=O)N[C@@H](CCCNC(=N)N)C(=O)N[C@@H](CC(C)C)C(=O)N[C@@H](CCCNC(=N)N)C(=O)N[C@@H](CCCNC(=N)N)C(=O)N[C@H](C)C(=O)N[C@@H](CCCNC(=N)N)C(=O)N1CCC[C@H]1C(=O)N[C@@H](CCCCN)C(N)=O | Oprk1 | ligand displacement, radioligand |  |  | 0.00804 µM |
| CNC(=O)C1CCN(c2ccccc2NC(=O)c2ccc(-c3cc(O)ccc3C)c(C)n2)CC1 | EPHA5 (Homo sapiens, UniProt P54756) | cell-free assay, TR-FRET |  |  | 0.0007 µM |
| OC(COCc1ccccc1Cl)CN1CC=C(c2c[nH]c3ccccc23)CC1 (racemic) | SLC6A3 | ligand displacement, radioligand |  |  | 2.13 µM |
| CC(=O)N[C@@H](Cc1ccccc1)C(=O)N[C@@H](Cc1ccccc1)C(=O)N[C@@H](Cc1c[nH]c2ccccc12)C(=O)N[C@@H](CCCNC(=N)N)C(=O)N[C@@H](CC(C)C)C(=O)N[C@@H](CCCNC(=N)N)C(=O)N[C@@H](CCCNC(=N)N)C(=O)N[C@H](C)C(=O)N[C@@H](CCCNC(=N)N)C(=O)N1CCC[C@H]1C(=O)N[C@@H](CCCCN)C(N)=O | Oprk1 | ligand displacement, radioligand |  |  | 0.0161 µM |
| Cc1cc(O)cc(C)c1CC(N)C(=O)NC1CCNc2c(F)cc(Cc3ccccc3)cc21 (stereo not shown) | OPRK1 (Homo sapiens, UniProt P41145) | ligand displacement, radioligand |  | cell membranes | 0.009 µM |
| CCCCCCCCCCCCCCCc1ccc(C(O)P(=O)(O)O)cc1 (racemic) | Autotaxin (ENPP2, Homo sapiens, UniProt Q13822) |  |  | free enzyme | 0.45 µM |
| CC[C@H](C)[C@H](NC(=O)[C@H](CNC(=O)[C@@H]1CCCN1C(=O)[C@H](CCCNC(=N)N)NC(=O)[C@@H](N)CCCNC(=N)N)Cc1ccc(O)cc1)C(=O)N[C@@H](CC(C)C)C(=O)O | NTSR2 (Homo sapiens, UniProt O95665) | ligand displacement, radioligand |  | cell membranes | 5.4 µM |
| CC[C@H](C)[C@H](NC(=O)[C@@H]1CSCC(=O)NCC[C@H](NC(=O)[C@H](Cc2ccc(O)cc2)NC(=O)CNC(C)=O)C(=O)N[C@@H](CO)C(=O)N[C@@H](CCCNC(=N)N)C(=O)N[C@@H](CO)C(=O)N[C@@H](Cc2ccc(O)cc2)C(=O)N2CCC[C@H]2C(=O)N2CCC[C@H]2C(=O)N[C@@H](C(C)C)C(=O)N1)C(=O)N1CCC[C@H]1C(=O)N[C@@H](CC(=O)O)C(N)=O | Mannan-binding lectin serine protease 2 | enzyme activity, inhibitor |  |  | 41 µM |
| CC(C)CN(C[C@@H](O)[C@H](Cc1ccccc1)NC(=O)c1cccc(O)c1)S(=O)(=O)c1ccc(-c2ccno2)s1 | Gag-Pol polyprotein, protease (Human immunodeficiency virus type 1 group M subtype B, UniProt P03369) | enzyme activity, inhibitor, FRET | HIV-1 |  | 0.00249 ± 0.000251 µM |
| CC[C@H](C)[C@H](NC(=O)CN)C(=O)N[C@H](C(=O)N[C@@H](CC(N)=O)C(=O)N[C@H](C(=O)N[C@@H](CC(C)C)C(=O)N[C@@H](CCC(N)=O)C(=O)N[C@@H](CCCCN)C(=O)N[C@@H](Cc1ccc(O)cc1)C(=O)N[C@@H](Cc1ccc(O)cc1)C(=O)N[C@H]1CSSC[C@@H]2NC(=O)[C@H](CCC(N)=O)NC(=O)[C@H](CCC(N)=O)NC(=O)CNC(=O)[C@H](CCC(N)=O)NC(=O)[C@H]([C@@H](C)O)NC(=O)[C@H](CO)NC(=O)[C@@H]3CSSC[C@H](NC(=O)[C@H](CCCNC(=N)N)NC(=O)CNC(=O)CNC(=O)[C@H](CCCNC(=N)N)NC(=O)[C@H](C(C)C)NC(=O)[C@H](CCCNC(=N)N)NC1=O)C(=O)N[C@@H](C)C(=O)N[C@@H](C(C)C)C(=O)N[C@@H](CC(C)C)C(=O)N[C@@H](CO)C(=O)N[C@@H](CSSC[C@@H](C(=O)N[C@@H](CCCNC(=N)N)C(=O)N[C@@H](CCCNC(=N)N)C(=O)N[C@@H](CCCCN)C(=O)N[C@@H](CCCCN)C(N)=O)NC2=O)C(=O)N[C@@H](CC(C)C)C(=O)N1CCC[C@H]1C(=O)N[C@@H](CCCCN)C(=O)N[C@@H](CCC(=O)O)C(=O)N[C@@H](CCC(=O)O)C(=O)N[C@@H](CCC(N)=O)C(=O)N[C@@H]([C@@H](C)CC)C(=O)NCC(=O)N[C@@H](CCC(N)=O)C(=O)N3)[C@@H](C)O)[C@@H](C)CC | MC1R | ligand displacement in cells |  |  | 0.189 µM |
| CC(C)C(Nc1ncnc2c1oc1ccccc12)C(=O)O (stereo not shown) | ampC |  |  |  | 400 µM |

Excerpt of the above:
| Structure (SMILES) | target | assay | system | setting | Ki |
| --- | --- | --- | --- | --- | --- |
| O=c1sc2ccccc2n1CCN1CCCC1 | Sigmar1 | binding, radioligand binding | rat liver membranes | together with: [3H](+)-pentazocine 5 nM | 0.578 ± 0.041 µM |
| C[C@H](CCC(=O)NCC(=O)O)[C@H]1CC[C@H]2[C@@H]3C(=O)C[C@H]4C[C@H](O)CC[C@]4(C)[C@H]3CC[C@]12C | SLC10A2 (Homo sapiens, UniProt Q12908) | transporter uptake, inhibitor, radiometric |  |  | 20.4 µM |
| CCCc1ccc2c(c1)sc(=O)n2CCCCN1CCCCCC1 | Sigmar1 | binding, radioligand binding | rat liver membranes | together with: [3H](+)-pentazocine 5 nM | 0.0061 ± 0.0012 µM |
